# Published values from different studies.
# Protocols differ between the studies behind these lines.
Structure (SMILES),cell line,test,setting,how to read,inhibition
COCCOCCOCCOc1ccc(-n2cc(CCCN(CCNc3ccnc4cc(Cl)ccc34)C(=O)CCC(=O)OC3OC4OC5(C)CCC6C(C)CCC(C3C)C46OO5)nn2)cc1 (stereo not drawn),K562,"cell growth or viability, resazurin","10 µM, 48 h",,47.3%
CC1=CCC23OC2(C)CCC2C(C[N+](C)(C)C)C(=O)OC2C13.[I-] (stereo not drawn),TK-10,"cell growth or viability, SRB",8.3 µM,,81.4%
CC1=C2[C@@H](O)[C@H](C(=O)O)CC[C@@]2(C)CCC1=O,human Neutrophil,"superoxide release, inhibitor, absorbance",10 µM,,12.1%
C#CCCCNCCNc1ccnc2cc(Cl)ccc12,K562,"cell growth or viability, resazurin","10 µM, 48 h",,5.5%
COc1cc(-c2oc3cc(O)c(OC)c(O)c3c(=O)c2OC)ccc1O,human Neutrophil,"elastase release, inhibitor",10 µM,,48.2%
C#CCCCN(CCNc1ccnc2cc(Cl)ccc12)C(=O)CCC(=O)O[C@@H]1O[C@@H]2O[C@@]3(C)CC[C@H]4[C@H](C)CCC([C@H]1C)[C@@]24OO3 (stereo partly drawn),K562,"cell growth or viability, resazurin","10 µM, 48 h",,48.5%
COc1cc(-c2oc3cc(OC)c(OC)c(O)c3c(=O)c2OC)ccc1O,human Neutrophil,"elastase release, inhibitor",10 µM,,65.8%
N=C(N)NCCC[C@H](NC(=O)[C@H](Cc1ccc(-c2ccccc2)cc1)NC(=O)[C@H](CCCNC(=N)N)NC(=O)[C@H](Cc1ccc(-c2ccccc2)cc1)NC(=O)[C@@H](N)CCCNC(=N)N)C(N)=O,MDCK,"cell proliferation, MTT","200 µM, 24 h",,15%
C=C(C(=O)O)[C@@H]1CC[C@@]2(C)CCC(=O)C(C)=C2C1,human Neutrophil,"elastase release, inhibitor",10 µM,,3.89%
COC(=O)c1ccc(-n2cc(CCCN(CCNc3ccnc4cc(Cl)ccc34)C(=O)CCC(=O)OC3OC4OC5(C)CCC6C(C)CCC(C3C)C46OO5)nn2)cc1 (stereo not drawn),K562,"cell growth or viability, resazurin","10 µM, 48 h",,82.5%
COC[C@H](NC(C)=O)C(=O)NCc1ccccc1,CAD,sodium current,"100 µM, holding potential -80 mV",reference: DMSO,no inhibition
C=C(C(=O)OC)[C@@H]1CC[C@@]2(C)CCC(=O)C(C)=C2C1,human Neutrophil,"elastase release, inhibitor",10 µM,,0.7%
Cc1ccc(C(C)C)c(OC(=O)Cn2cnc3c2c(=O)n(C)c(=O)n3C)c1,RAW264.7,"NO release, inhibitor, Griess","25 µM, LPS-stimulated",,70.7%
C=C(C(=O)O)[C@@H]1CC[C@@]2(C)CCC(=O)C(C)=C2[C@H]1O,human Neutrophil,"elastase release, inhibitor",10 µM,,5.89%
C=CCc1ccc(OC(=O)COC(=O)Cn2cnc3c2c(=O)n(C)c(=O)n3C)c(OC)c1,RAW264.7,"ELISA, measured: IL-6","1 µM, added: LPS",reference: LPS alone,31.3%
CC[C@H](C)[C@H](NC(C)=O)C(=O)N[C@@H](CCCNC(=N)N)C(=O)N[C@@H](CC(C)C)C(=O)N[C@@H](CCC(N)=O)C(=O)N[C@H](C(=O)N[C@@H](CO)C(=O)N[C@@H](CC(N)=O)C(=O)N1CCC[C@H]1C(=O)N[C@@H](Cc1ccc(O)cc1)C(=O)N[C@@H](CC(C)C)C(=O)N[C@@H](CCCCN)C(=O)N[C@@H](Cc1ccccc1)C(=O)N[C@H](C(=O)N1CCC[C@H]1C(=O)N[C@@H](CC(C)C)C(=O)N[C@@H](CCCCN)C(=O)N[C@@H](CCCNC(=N)N)C(=O)N[C@@H](C)C(=O)N[C@H](C(=O)N[C@@H](Cc1c[nH]c2ccccc12)C(=O)N[C@@H](CC(C)C)C(=O)N[C@H](C(=O)N[C@@H](CCCCN)C(N)=O)[C@@H](C)CC)[C@@H](C)CC)[C@@H](C)CC)[C@@H](C)CC,human cells,total IgG production,concentration not given,,≥ 50%
CC1CCC2C(C)C(OC(=O)CCC(=O)N(CCCc3cn(-c4ccc(CN5CCOCC5)cc4)nn3)CCNc3ccnc4cc(Cl)ccc34)OC3OC4(C)CCC1C32OO4 (stereo not drawn),K562,"cell growth or viability, resazurin","10 µM, 48 h",,60.1%
CC1CCC(C(C)C)C(OC(=O)CSc2nnc(Cn3cnc4c3c(=O)n(C)c(=O)n4C)o2)C1 (stereo not drawn),RAW264.7,"NO release, inhibitor, Griess","25 µM, LPS-stimulated",,69.6%

# Excerpt of the above:
Structure (SMILES),cell line,test,setting,how to read,inhibition
C=C(C(=O)O)[C@@H]1CC[C@@]2(C)CCC(=O)C(C)=C2C1,human Neutrophil,"elastase release, inhibitor",10 µM,,3.89%
CC[C@H](C)[C@H](NC(C)=O)C(=O)N[C@@H](CCCNC(=N)N)C(=O)N[C@@H](CC(C)C)C(=O)N[C@@H](CCC(N)=O)C(=O)N[C@H](C(=O)N[C@@H](CO)C(=O)N[C@@H](CC(N)=O)C(=O)N1CCC[C@H]1C(=O)N[C@@H](Cc1ccc(O)cc1)C(=O)N[C@@H](CC(C)C)C(=O)N[C@@H](CCCCN)C(=O)N[C@@H](Cc1ccccc1)C(=O)N[C@H](C(=O)N1CCC[C@H]1C(=O)N[C@@H](CC(C)C)C(=O)N[C@@H](CCCCN)C(=O)N[C@@H](CCCNC(=N)N)C(=O)N[C@@H](C)C(=O)N[C@H](C(=O)N[C@@H](Cc1c[nH]c2ccccc12)C(=O)N[C@@H](CC(C)C)C(=O)N[C@H](C(=O)N[C@@H](CCCCN)C(N)=O)[C@@H](C)CC)[C@@H](C)CC)[C@@H](C)CC)[C@@H](C)CC,human cells,total IgG production,concentration not given,,≥ 50%
COc1cc(-c2oc3cc(O)c(OC)c(O)c3c(=O)c2OC)ccc1O,human Neutrophil,"elastase release, inhibitor",10 µM,,48.2%
